Measurements collected from several papers.
Numbered parts are unrelated; each lists some results of a single study. Changes are numbered by the printed parent chain.

Series 1
Target: Protein max, full length (MAX, Homo sapiens, UniProt P61244-2, residues 1-151)
Method: protein-binding microarray
Form: double-stranded DNA, one strand shown
Sample: in vitro
Tested at: not given
Notes: k-mer, scored over probes, only values ≥0.25
Direction: higher = stronger binding
Oligonucleotide	E-score
ACACGCCC	0.305
GGTAGCAC	0.275
GCATGAAC	0.259
GTGCACGA	0.348
CATGAGCC	0.27
CACGATGA	0.326
AGCACGGG	0.375
CATGGTAA	0.311
CACGGTGC	0.349
GGCATGCC	0.36
AATGTGGT	0.264
CATGCTGA	0.433
CATGCTGG	0.447
ATGTGTCA	0.353
AGCACACC	0.295
AACATGTT	0.288
ACACGTGT	0.496
ACACGAGC	0.328
CGTGATAA	0.355
AATGCATG	0.346
CACGCGGA	0.47
CGTGAATA	0.313
ATGTGTAA	0.286
ACGTGAAC	0.332
TGTGCACA	0.266

Series 2
Target: Interferon regulatory factor 7, full length, phosphomimetic (IRF7, Homo sapiens, UniProt Q92985, residues 1-503, S471D/S472D/S475D/S476D/S477D/S483D/S484D/S487D)
UniProt Q92985, sequence (whole entry, unmodified, looked up): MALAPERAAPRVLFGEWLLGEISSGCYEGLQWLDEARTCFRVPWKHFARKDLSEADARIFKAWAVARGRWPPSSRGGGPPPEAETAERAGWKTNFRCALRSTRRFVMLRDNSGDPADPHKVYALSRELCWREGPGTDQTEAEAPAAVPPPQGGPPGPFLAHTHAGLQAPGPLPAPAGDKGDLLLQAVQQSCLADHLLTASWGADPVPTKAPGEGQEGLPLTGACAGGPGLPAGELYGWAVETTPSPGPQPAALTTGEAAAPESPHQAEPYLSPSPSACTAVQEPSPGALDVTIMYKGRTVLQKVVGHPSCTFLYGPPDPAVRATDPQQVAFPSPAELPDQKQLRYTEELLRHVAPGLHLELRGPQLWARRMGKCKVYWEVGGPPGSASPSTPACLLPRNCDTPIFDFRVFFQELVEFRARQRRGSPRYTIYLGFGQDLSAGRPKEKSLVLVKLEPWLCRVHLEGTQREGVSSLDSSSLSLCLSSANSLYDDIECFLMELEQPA
Method: protein-binding microarray
Form: double-stranded DNA, one strand shown
Sample: in vitro
Tested at: 2200 nM top
Notes: 60-bp whole probe
Added: salmon DNA 0.4 mg/ml
Reference: random background probes
Direction: higher = stronger binding
Constant ends, left off below: GCCTAGCAC … GTCTTGATTCGCTTGACGCTGCTG
Oligonucleotide	fitted relative affinity [z-score]
GACGGTATCGTTCTCCTGACGTGCTAG	1.15
GACGATTTCGGGTATCGAGCCGTGCTA	2.69
TCAAGTCCCCTCTTCTGACTGTGCTAG	0.945
GACGGACTGCTACTGCTGCCGTGCTAG	-0.348
TTAGGTATAGACTATCGGTTAGTGCTA	-0.106
TTAGATTTCGACTTTCGGTTAGTGCTA	8.67
CCCTAATTCTGATTGGATAAGTGCTAG	0.655
GACGGTATCGGACTGCGGACGTGCTAG	-0.178
TCACATATTTGTTTCCAACTGTGCTAG	1.93
CTAGTTTTACTTTCTATCTCGTGCTAG	5.44
TTAGGACTGGGGTATCGGTTTGTGCTA	0.28
TTAGATTTCTGACTGGATTAGTGCTAG	0.143
TCAGTAAGCAAAAATGAACTGTGCTAG	-1.16
TTAAGTTTCGGTATCGGTTAGTGCTAG	9.08
GAAGGACTGGGGTATCGGGACGTGCTA	-0.835
TTAGGTCTCGGTTTCGGATAGTGCTAG	3.92
GACGGTTTCGGGACTGGGGAGGTGCTA	3.63
GACGGTTTCCGACTGGGGACGTGCTAG	1.68
GACGGACTGGGTATCGGGAGGTGCTAG	-0.693
GACGAACCGAGTTTCGAGACGTGCTAG	3.49
GACGGTCTCTTTATCCTGACGTGCTAG	0.974
GAAGATCTCAGTTTCGAGACGTGCTAG	3.24
CTAGTTTTCATTTTCTGAATGTGCTAG	7.09
TCCTATGTCATTTACATTTTGTGCTAG	1.99

Series 3
Target: CEP164, C-terminal peptide (human)
Method: DHFR complementation, deep sequencing
Sample: yeast
Notes: single substitutions, model-inferred values
Reference: wild type
Direction: higher = weaker binding
Starting sequence: PDZK1, PDZ domain 2 (human); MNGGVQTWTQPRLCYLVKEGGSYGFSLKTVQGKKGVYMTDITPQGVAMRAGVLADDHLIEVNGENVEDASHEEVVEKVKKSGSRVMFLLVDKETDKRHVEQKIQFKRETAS; partner HNRVKVYRF
Substitution	binding free energy change [kcal/mol]
E19C	0.193
F87E	1.58
G21P	-0.0671
N62I	1.24
M86R	-0.158
L89N	1.55
L89A	1.52
G45H	0.776
V17K	-0.184
E60Q	0.103
T9C	-0.0399
M1E	-0.179
R49V	0.279
A110Y	-0.0699
L88T	-0.144
D68H	0.00532
G4F	0.0974
L16S	1.54
K28F	-0.125
H71W	-0.773
A54H	0.0141
S83A	-0.0117
I41L	0.331
G24L	1.13

Series 4
Target: RNA binding protein fox-1 homolog 2, RRM domain, GST-SBP tag (RBFOX2, Homo sapiens, UniProt O43251-10, residues 100-194)
Method: RNA Bind-n-Seq
Form: RNA
Sample: in vitro
Tested at: 365 nM
Notes: natural RNA segment, single round, ends assumed
Reference: no-protein control
Direction: higher = stronger binding
Constant ends, left off below: GGGAGUUCUACAGUCCGACGAUC … UGGAAUUCUCGGGUGCCAA
Target sequence (chain): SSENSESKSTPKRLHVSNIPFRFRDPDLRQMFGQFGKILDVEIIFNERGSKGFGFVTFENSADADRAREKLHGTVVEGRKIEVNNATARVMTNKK
Oligonucleotide	RBNS enrichment (R)
UAUUUUUAUAUUUUGCCAUUUUACAGUACUGUUUUGUUUUGAAUUCAUGCAUAUCAUUGAAAAUUUCUCGUUUUCAUUUUCUUAGAUGACUUCUUGUCUGAGACAGAAAA	2.18
AAACUCCCUCUGGCUGCUGCUGCUGCUUUUUGGUGUCCCGACAUACCUACGCCCCCGUUUUAUGGGUUUGGCUUAGUUGAAGAGGAAAGGGUUGUGCAAGGAGAGCAGGA	0.63
AUUAAAAGGGGACUAAAAAUUUGUUUUGUAUAAAGAGGAUAGCCCUGCGCACGUAGGACUGAAUUCAGUGAUAUCCCUAUACACUGCCAAUUAGUGGAUAGGUUAUUGUA	0.594
UCUUGCAAGAAAUUCCUAAUUCUUCUGCUGACUUGGAGCUCGCUGCCACAGACAGCACAGCCCUUGCCCAGAAGCAGCUGAACAAUUCCUAACCCAUUUCAUCUCGGUUC	0.247
CACAAAGGCCCACACUUCCUGACGGAUGCCAGCUUGGGCACUGCUGUCUACUGACCCCAACCCUUGAUGAUAUGUAUUUAUUCAUUUGUUAUUUUACCAGCUAUUUAUUG	0.495
CUGUGGGCUCUGCGUGGCCGGGCCUUGCUGGAGGCCCAGUGGGUUUUCUGGGCAAAGCAUGGCCCCUUUUCCCCAGGACAAAGGGAACAGUUGGUGUCUGGGAAGGUAUU	0.903
UGUGCGUGUGUGUGCGCGUGUGUGUUAUUGUUUAAAUUGUAUUCACAGUGUUGUUUGCCUUGCUCACUUGUAACCCCCUCCUCGGAUCUAGGAGAAUGGGAGGAGGGUCU	3.36
CGGGGGAUGGAAAGGAAGAUAAAUGUUAUUUGUUCACUUUUGUAAGACUCUGUUCUGGGUGUGGGCCAGGAGGUCUUAGAAAGAAGCUGGCUGUCAGUGACCAUGUGGGC	1.7
AAUGUAAACUGCUCCCCCUCUCCCUUGCAGCCCUACGUGUUGAGGUUCUCUUGCAAUCUGUGUUAAGUACUGAAUGAAUGCCUUGAUUCAAUAAAAUUAAUUUUUUGACU	0.907
GGGGACAAUUUCCCCAUCCCCAAGUGGGGACAAUUUACUUCCUUCUUUGCUGGUUUACUCUAGGACUUCAAAGUUUGUCUGGGAUUUUUUUAUUAAAAAAAAUUGUCUUU	1.68
CCAAUAAAAACUGGGAUUUUGAAUGUGGCUCUACAAGUUAAACAUUUCUGUGUGUUGUGUAUGCUAGGUGAUGCCCUCAGAAGGGACUGACUACUAGACUGUAAGUGUGU	1.75
GCACAUCUCCUACCAAAAUUGCUCCCAAGAUGGAGGGUGAGACCUCAGUGCUAGGUUGACAGGUGGGCGUCGCCAUGCCUGGACCAAUUCCUGCACAGCACAGGAAGGCU	0.181

Series 5
Target: RING finger protein unkempt homolog, zinc fingers 1-6, GST-SBP tag (UNK, Homo sapiens, UniProt Q9C0B0, residues 30-357)
UniProt Q9C0B0, sequence (30-357, looked up): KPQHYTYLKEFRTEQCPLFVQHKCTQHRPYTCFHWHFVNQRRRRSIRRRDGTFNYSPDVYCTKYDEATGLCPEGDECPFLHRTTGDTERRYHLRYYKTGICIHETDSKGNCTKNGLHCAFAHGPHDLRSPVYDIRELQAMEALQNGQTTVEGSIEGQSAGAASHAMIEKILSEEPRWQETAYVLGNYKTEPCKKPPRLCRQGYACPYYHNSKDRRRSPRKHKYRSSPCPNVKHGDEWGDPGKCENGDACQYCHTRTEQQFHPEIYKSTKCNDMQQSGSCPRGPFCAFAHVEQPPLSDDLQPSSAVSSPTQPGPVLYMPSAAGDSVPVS
Method: RNA Bind-n-Seq
Form: RNA
Sample: in vitro
Tested at: not given
Notes: RNA with constant flanks, human and mouse sites, ends assumed
Reference: input RNA pool
Direction: higher = stronger binding
Constant ends, left off below: GGGAGUUCUACAGUCCGACGAUC … CAACAGAGGAUUGAGCAUCA
Oligonucleotide	bound/input enrichment [ratio]
UGGGUGUCGCUGGUGAGUAAGAACUAUGAGAUUGAGCGGACGAUUGUCCAGCUGGAGAACGAGAUCUAUCAGAUCAAGCAGCAGCACGGGGAGGCCAACAAGGAAAACAUCCGCCAAGAC	0.22
UUUGUUACCUAACCAACCUUCACUGAAAGGCAAAUUUAGUUCAGGAGGUUAGUUUUUAGCUAGCUUUGGAAGUAAGCCUUUAUUUAUUACUUUUUGGAGGAAAUCAGAGAAGUGUCAAUG	0.279
CUCUUCUCCCAAUUUAAGUGGUUCUGUACCACAAAGAAUCUUGAUACAUUUUCACAAAUAACUGAUUGGGCUUCAUACUUUAUGCUGGCUGUGUCCUGAUACCCAUGUACUUAUGGUAAG	0.376
AAUUAUGAAAGCAUAAAACAUGAGCCUGAAAACCCCCCACCAUAUGAAGAGGCCAUGAGUGUAUCACUAAAAAAAGUAUCAGGAAUAAAGGAAGAAAUUAAAGAGCCUGAAAAUAUUAAU	0.454
GGCAGUGUCCACCCCUCUGAUGUGUUGGAUAUGCCUGUGGAUCCCAACGAACCCACAUAUUGCCUUUGUCACCAGGUCUCCUAUGGAGAGAUGAUUGGCUGUGACAACCCGGAUUGUUCC	0.214
GCUCUGCCCCACCAUUCAUAUAUGGGCCUCAGCUCCCCCUAACUGUGGCCCUACAAAUCCCUAGGCCAGACCUCACAGCAGUGCCCACAGGCAUGCCUUGUUUAGCCCUCCUCAAGGAAU	0.346
GUGACUAUAUAAAUAUCAAAACAUGUUCACUUUGUAGGACAAAAUUAUGUUGAAAAGUUCUAGCUUAAGUGUUGGCACUUUUAUGGGGGGGAAAUCAGUUUUAAAACUAAGACUUCCAUG	0.305
AUAAAAAGGAAGUUGGUUAUACUCGUCAAAAAGUGCCUUCUCUGUAAAGUGGGCGAAGACCUCUGCCGGGAACCUGCGCCCUCCCUGAUGUCACCAGAUCACCUUCUGGACAGUGACAUG	0.108
CGGUCCAUCCUUUCAGUCUGAGACCGGCCCAGAAGAAAAAAACCCCAAAAACCUUAAUUUUCUUUCUUGUUCGGUACCUACAUUGGAACCAUCAAAAACAAUUAUUUCAGUAAACCGUAG	0.509
AGCAAAGUAGAAAACUUCAUUCAAAAGCAAGAAAAACGGAUAUUUACAAACUUCCAUCGCCAGCUUUUUUGUUGGAUUGACAAGUGGAUCGAUCUCACGAUGGAAGACAUUAGGAGAAUG	2.04
GUUCCUGCUUUAAUUUUUGGACAGCUUUUAACAUCCAGUAACUAUGAUGAUGAUGAGAAAAAAGUUACAGGUGGUCGUAAUGGUUAUGGUGCAAAACUUUGUAAUAUUUUCAGUACAAAG	0.363

Mixed results
Molecule	target	assay	test system	setting	how to read	quantity	result
PhoQ, residues 284 288 289 292 302 303 SSCCRF	PhoP, residues 12 14 15 18 19 STWGI (Escherichia coli, UniProt P23836)	Sort-seq, item: YFP reporter	E. coli	PhoQ-PhoP variant library, added: 10 µM Mg2+	reference: high Mg2+ state, higher = stronger signaling	fold induction	8.06
